Assay results from different studies.
Each numbered part is a random draw from the data of one study; scales do not carry over between parts.
Chain of UniProt Q15349 (whole entry, looked up): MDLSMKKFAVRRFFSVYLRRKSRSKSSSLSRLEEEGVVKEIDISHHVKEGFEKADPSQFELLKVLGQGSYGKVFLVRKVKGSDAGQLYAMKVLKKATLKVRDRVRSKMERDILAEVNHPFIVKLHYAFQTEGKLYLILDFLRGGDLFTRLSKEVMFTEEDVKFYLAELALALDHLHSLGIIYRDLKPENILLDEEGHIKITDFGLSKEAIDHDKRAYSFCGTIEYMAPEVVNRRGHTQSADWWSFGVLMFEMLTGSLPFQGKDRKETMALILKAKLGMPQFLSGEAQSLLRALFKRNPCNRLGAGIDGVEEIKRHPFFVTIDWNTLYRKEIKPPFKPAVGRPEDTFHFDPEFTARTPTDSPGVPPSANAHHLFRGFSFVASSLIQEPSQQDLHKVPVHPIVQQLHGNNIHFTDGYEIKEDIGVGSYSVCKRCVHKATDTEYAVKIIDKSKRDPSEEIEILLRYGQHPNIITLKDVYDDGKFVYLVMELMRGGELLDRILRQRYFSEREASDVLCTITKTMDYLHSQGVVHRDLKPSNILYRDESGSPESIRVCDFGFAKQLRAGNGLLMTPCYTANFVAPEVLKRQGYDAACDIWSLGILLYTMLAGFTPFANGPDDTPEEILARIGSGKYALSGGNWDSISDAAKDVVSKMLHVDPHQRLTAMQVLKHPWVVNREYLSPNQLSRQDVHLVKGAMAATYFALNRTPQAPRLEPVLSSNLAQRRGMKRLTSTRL

Block 1
Target: Interferon regulatory factor 7, full length, phosphomimetic (IRF7, Homo sapiens, UniProt Q92985, residues 1-503, S101K/S471D/S472D/S475D/S476D/S477D/S483D/S484D/S487D)
Chain of UniProt Q92985 (whole entry, unmodified, looked up): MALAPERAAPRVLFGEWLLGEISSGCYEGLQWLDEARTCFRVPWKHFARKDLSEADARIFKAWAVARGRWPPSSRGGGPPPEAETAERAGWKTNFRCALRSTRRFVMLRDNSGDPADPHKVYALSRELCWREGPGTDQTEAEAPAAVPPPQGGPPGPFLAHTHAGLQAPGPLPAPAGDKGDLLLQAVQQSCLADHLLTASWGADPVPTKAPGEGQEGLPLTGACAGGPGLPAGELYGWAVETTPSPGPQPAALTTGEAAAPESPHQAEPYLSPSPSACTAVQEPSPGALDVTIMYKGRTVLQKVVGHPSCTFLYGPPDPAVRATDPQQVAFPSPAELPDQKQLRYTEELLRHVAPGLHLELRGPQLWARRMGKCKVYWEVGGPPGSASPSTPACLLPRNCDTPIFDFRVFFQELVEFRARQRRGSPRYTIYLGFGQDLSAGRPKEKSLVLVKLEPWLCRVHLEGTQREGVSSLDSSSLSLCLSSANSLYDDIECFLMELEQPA
Technique: protein-binding microarray
Molecule type: double-stranded DNA, one strand shown
Sample: in vitro
Concentration: 250 nM
Notes: 60-bp whole probe
Together with: salmon DNA 0.4 mg/ml
Baseline: random background probes
Reading: higher = stronger binding
Endpoint: log fluorescence
Constant ends, left off below: GCCTAGCAC … GTCTTGATTCGCTTGACGCTGCTG
TCAATTTTCAGAATTTAACTGTGCTAG: 0.25 z-score
AACGATATCGGGTTTCGAGACGTGCTA: 2.86 z-score
GACGTTCTCAGTTTCGAGACGTGCTAG: 4.17 z-score
TCAGCTTTGCCTTTTGCACTGTGCTAG: -0.589 z-score
CTCCACTTGTGTTTGGGCATGTGCTAG: -0.0139 z-score
TTAGGCATCGGTCTCGGTTAGTGCTAG: 1.47 z-score
TCATTTCTTTCAAATGAAACTGTGCTA: 1.92 z-score
GACGGTATCCTATTCCTGACGTGCTAG: 0.685 z-score

Block 2
Target: Prothrombin, mature alpha-thrombin (F2, Homo sapiens, UniProt P00734)
Technique: aptamer microarray, sandwich
Molecule type: DNA with 2'F-ANA
Sample: in vitro
Concentration: 200 nM
Notes: whole 15-mer aptamer, many near background
Together with: Cy3 exosite-II aptamer, 400 nM
Reading: higher = stronger binding
Endpoint: mean fluorescence intensity
Strand: GGTTGGTGTGGTTGG
2'F-ANA at 1 4 7 8 9 11 12 13 14: 53.2 a.u.
2'F-ANA at 2 3 5 6 7 8 10 14: 71.8 a.u.
2'F-ANA at 1 2 5 7 9 12 13 14: 61.9 a.u.
2'F-ANA at 3 6 7 8 9 13: 845 a.u.
2'F-ANA at 2 3 8 9 10 12: 439 a.u.
2'F-ANA at 1 2 5 7 8 11 12 13 14 15: 93.6 a.u.
2'F-ANA at 1 2 4 10 12 14 15: 46.3 a.u.
2'F-ANA at 3 7 8 10 11 12: 692 a.u.

Block 3
Target: Centromere-binding protein 1, full length, His-tagged (CBF1, Saccharomyces cerevisiae, UniProt P17106, residues 1-351)
Chain of UniProt P17106 (whole entry, looked up): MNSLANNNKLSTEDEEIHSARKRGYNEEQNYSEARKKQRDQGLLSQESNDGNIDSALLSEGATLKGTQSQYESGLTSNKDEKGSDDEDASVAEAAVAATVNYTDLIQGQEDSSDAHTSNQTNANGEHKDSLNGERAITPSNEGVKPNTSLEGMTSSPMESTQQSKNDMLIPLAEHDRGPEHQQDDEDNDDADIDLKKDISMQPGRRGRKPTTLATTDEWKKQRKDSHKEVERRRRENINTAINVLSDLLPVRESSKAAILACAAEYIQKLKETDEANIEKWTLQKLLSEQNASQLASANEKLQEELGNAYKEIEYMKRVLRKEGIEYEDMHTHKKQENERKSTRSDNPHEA
Technique: competition protein-binding microarray
Molecule type: double-stranded DNA, one strand shown
Sample: in vitro
Concentration: 2 µM
Notes: whole 60-bp probe, lowest competitor level
Together with: Pho4 competitor, 0.05 µM
Reading: higher = stronger binding
Endpoint: fluorescence intensity
Constant ends, left off below: … GTCTTGATTCGCTTGACGCTGCTG
TGCGCAACAACTTGGAGCGTGGGTGTATGTCTAGAA: 65.1 a.u.
TCTTAGCAGTGAGGACACGGGAGTTGCAGATCAATC: 75.2 a.u.
AATTTGGTAAGCCATCACGTGGTGAGACAGTTTTCC: 4440 a.u.
AAATTACTAAGTTGTCTTGTGGGTGACGCCGTATGA: 75.7 a.u.
CGGGGTTAAGTTTGCTGTGTGGGTGGCTTGCAGCAG: 54.6 a.u.
AAAATGTTAGCCCATCACGATGGAAACTTAACTGCT: 97.3 a.u.
AAATTACTAAGTTTTCACGTGTAGTACCCCGTATGA: 734 a.u.
CGGGGTTAAGTTTGTCACTGAACTTGCTTGCAGCAG: 87.1 a.u.

Single results of other studies
COc1ccc2c(c1)O[C@@H](c1ccc(OC)c(OC)c1)C[C@H]2NC(=O)C1(c2ccc3c(c2)OC(F)(F)O3)CC1  remaining binding (Ribosomal protein S6 kinase alpha-2, N-terminal kinase domain (RPS6KA2, Homo sapiens, UniProt Q15349); cell-free assay, competition with immobilised ligand; 1 µM): 90%
